# Experimental data collected from several papers.
# Numbered parts are unrelated; each lists some results of a single study.

# Block 1
# Target: RNA binding protein fox-1 homolog 2, RRM domain, GST-SBP tag (RBFOX2, Homo sapiens, UniProt O43251-10, residues 100-194)
# Method: RNA Bind-n-Seq
# Molecule type: RNA
# Sample: in vitro
# Tested at: 365 nM
# Notes: natural RNA segment, single round, ends assumed
# Relative to: no-protein control
# Reading: higher = stronger binding
# Residues (chain): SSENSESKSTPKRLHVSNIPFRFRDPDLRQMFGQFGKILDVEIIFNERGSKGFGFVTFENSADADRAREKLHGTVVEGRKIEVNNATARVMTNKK
Sequence,RBNS enrichment (R)
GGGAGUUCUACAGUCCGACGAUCGCGGGCAGAGAUGCUUCACACACACUUGCCCUAAGGGGUGGACCCUUCCUGGGAUGUCAGCUCCAGCACUGCCAGCCACCCCCACUGCUCUCUUUGGGACCUGGCCGUGCUGGAAUUCUCGGGUGCCAA,0.33
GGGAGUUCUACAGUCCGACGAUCUUUUACUGAGAAAGGAAGGGCCAAGGGAUGAGGUGGGAACCGGGCCCUGGGGGCGCCACAGACUAAGGCAGAGACUCCCCUACCUGGCGCCCAGCCCCAACCAGCUGGCCUGGAAUUCUCGGGUGCCAA,0.465
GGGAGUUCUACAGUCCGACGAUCGGUUUCAGUACAUUGGCUUUUACAUCAAAAACUAACAGGGCACAGUUUGACCUGUUUAGUGUAUUCUGGGCCGAGUCUCUGAAGCAGGAGCAGAGCACACUCCCGGGAUUUGGAAUUCUCGGGUGCCAA,0.356
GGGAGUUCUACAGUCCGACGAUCUGGCUCCGCCGUUAAGAGUGACCAGCUUAGCCACAGUUCUGGUGCUCAGCUUGAAGACAAGUCACAGGUGGGCAAGUAUCACUGCCUGAACAGGGCUGUUAAAGGUCCAUUGGAAUUCUCGGGUGCCAA,0.328
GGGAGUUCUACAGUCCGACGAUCGAUGAUUGUCUGCAGGGCAUCUGUGUAUAUCACAGUGGCCAGGCCCCCUGCAAGAAACAAGGCUGCUGGAGUAAGUGUCCCAGGAGAGUCUGACCUCAUCACCAGAGCUGUGGAAUUCUCGGGUGCCAA,0.475
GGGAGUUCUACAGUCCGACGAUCCUGUCGCUGCUUUUUGUCCUCUGCCGUGUUUGCGCGGCCUCAGUGCCCUCCCUGGUGCGUCUGCGCUGGGGCCCUCAGUGCUCGGGGCCUUGGGGUGCAUGGGUGCCGCCUGGAAUUCUCGGGUGCCAA,0.728
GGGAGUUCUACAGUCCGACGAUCUGCUCAGGGCUGAGUCUUAAAGAAGGGUUUGCCGGCCCUAACGCUGCAGCGCGUGCGCGGUGAGAGGCCCUUUUUGAGCCUGUUUACUCCUGUGGCCUUGGGCAGAACAGUGGAAUUCUCGGGUGCCAA,0.775
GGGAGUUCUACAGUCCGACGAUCAAUGGAAAGAAAGCAUCCCCCCACCCCCUCUGGGUUCGAGCGUUCACCGUCUCCGCACUGUGCCUGCGGGUCACCAGAGACAAGGCCUUCCUCAGGGACGUACAGGCUGUUGGAAUUCUCGGGUGCCAA,0.646
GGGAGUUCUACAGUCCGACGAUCCCUUCAGCUGUCAGCUUUCUGGGGCUAACUUCUCUGCCUUUGUGGUUGGAGGCCUGAGGCCUCUUGGAACUCUUGCUAACCUGUUCAGAGCCAGGAAGGAGACUGCACAGUGGAAUUCUCGGGUGCCAA,0.309
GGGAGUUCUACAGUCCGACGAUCGAGAGAUGGCUCAGUGGUUAAGAGCACCGACUGCUCUUCCAGAGGUCCUGUGUUCAAUUCCCAGCAACCACAUGGUGGCUCACAACCAUCCGUAAUGAGAUCUGAUGCCCUGGAAUUCUCGGGUGCCAA,0.33
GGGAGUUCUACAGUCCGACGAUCCCUUCUUCAUUGUUGUUUGUAUUUAUGAAAUUCUGAAAUUAUGGGGAAUCAGUGUACUGAUUAUGUUUUCAUCACCAGGCUGUGAGCAAUAUCUUGAGUUUGUAGCUUAGUGGAAUUCUCGGGUGCCAA,1.02
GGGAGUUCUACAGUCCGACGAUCUUGUUAAAUGUAAGGAAAGCUUAAAUUCUUGUAUCUUUAAAAGAGAAAAUCUUAUUUAACCCUUUUGUGUUCUAGAUUUACUUACACACAUAGCCUAGAGCUCAGUUUUAUGGAAUUCUCGGGUGCCAA,0.339

# Block 2
# Target: Fragile X messenger ribonucleoprotein 1, C-terminal low-complexity region (Fmr1, Mus musculus, UniProt P35922)
# Method: RNA Bind-n-Seq
# Molecule type: RNA
# Sample: in vitro
# Tested at: 200 nM
# Notes: whole 134-nt RNA, ends assumed
# Together with: 150 mM KCl
# Relative to: input library
# Reading: higher = stronger binding
Sequence,log2 enrichment
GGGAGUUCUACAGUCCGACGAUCGCAGGAAGUAAAAACAAAUGGAAAUGCUUCGGAUAGUGGCAGGGGUGGGGGUUGCUAAGGAAAGGGUGGGAUGGGAGUGGAUAAAGAGUUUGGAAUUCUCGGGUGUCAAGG,0.31
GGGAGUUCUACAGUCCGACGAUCACCAUGCAGGUGGGCAUCAUUGGGAAGUGGGGCAAGGGGGGGAUAGGGAGGGGGGUAACACUUUGGGAACAGGUGGUCCCAGGUCGUUUCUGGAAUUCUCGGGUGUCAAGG,0.577
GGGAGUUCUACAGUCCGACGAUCUCAAGUCCUGUGCUACACAUCGUAUGUACCGAAUCGGAAAGGUGGAAAAAAAGGAAAGUAUUAUGUUACGCCGUUCGGAUCUGCACUUCCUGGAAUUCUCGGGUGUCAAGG,-0.955
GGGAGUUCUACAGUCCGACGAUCGCAGGAAGUAAAAACAAAUGGAAAUCCUUCGGAUAGUGGCAGGGGUGGGGGUUGCUAAGGAAAGGGUGGGAUGGGAGUGGGUAAAGAGUUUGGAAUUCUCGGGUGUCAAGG,0.577
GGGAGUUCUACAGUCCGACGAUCUCCUCAAGUCCUGUGCUACACAUCGUAUGUACCGAAUCGUGUGUGUGUGUGUAAAGUAUUAUGUUACGCCGUUCGGAUCUGCACUUCCAGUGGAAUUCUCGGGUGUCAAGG,0.533
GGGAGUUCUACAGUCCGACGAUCCUCAAGUCCUGUGCUACACAUCGUAUGUACCGAAUCGGCCGGGCCGGGCCGGGGAAAGUAUUAUGUUACGCCGUUCGGAUCUGCACUUCCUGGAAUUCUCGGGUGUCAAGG,0.0356
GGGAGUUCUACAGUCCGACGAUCGUCCUGUGCUACACAUCGUAUGUACCGAAUCGGGGAAAGGGGAAAAAGGGGAAAGGGGAAAGUAUUAUGUUACGCCGUUCGGAUCUGCACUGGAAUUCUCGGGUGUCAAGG,0.319
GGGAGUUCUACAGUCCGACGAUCUGGCCCUGGUGGCAUGCGGGGAGGAAGAGGUGGUCUCAUGGAUCGUGGUGGUCCCGGUGGAAUGUUCAGAGGUGGCCGUGGUGGAGACAGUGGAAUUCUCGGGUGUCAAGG,0.0844
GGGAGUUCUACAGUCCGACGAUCGCAGGAAGUAAAAACAAAUGGAAAUGCUUCGGAUAGUGGCAGGGGUGGGGGUUGCUAAGGAAAGGGUGGGAUGGGAGUUGGUAAAGAGUUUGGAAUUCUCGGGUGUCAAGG,0.183

# Block 3
# Target: RING finger protein unkempt homolog, zinc fingers 1-6, SBP tag (UNK, Homo sapiens, UniProt Q9C0B0, residues 30-357)
# Chain of UniProt Q9C0B0 (30-357, looked up): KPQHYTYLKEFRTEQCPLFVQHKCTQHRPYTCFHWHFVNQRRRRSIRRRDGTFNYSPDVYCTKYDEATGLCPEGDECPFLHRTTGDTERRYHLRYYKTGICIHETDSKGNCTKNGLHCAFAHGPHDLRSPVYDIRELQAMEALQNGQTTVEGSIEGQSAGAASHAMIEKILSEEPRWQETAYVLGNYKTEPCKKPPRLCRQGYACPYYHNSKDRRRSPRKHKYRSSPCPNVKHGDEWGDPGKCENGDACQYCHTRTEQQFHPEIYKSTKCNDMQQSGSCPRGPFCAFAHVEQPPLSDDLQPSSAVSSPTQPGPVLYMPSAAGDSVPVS
# Method: RNA Bind-n-Seq
# Molecule type: RNA
# Sample: in vitro
# Tested at: 100 nM
# Notes: RNA with constant flanks, vertebrate orthologous sites, ends assumed
# Relative to: input RNA pool
# Reading: higher = stronger binding
Sequence,bound/input enrichment [ratio]
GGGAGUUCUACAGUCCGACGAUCUGGGUUACUCCUAUUAUUAUCAAGUAGCUGGAAUUGUGAAGGUCGGAGUAGUUAGAUCUUAGCUUUUAUUCCUUAUUUUUUUGUAUUACUCUUCAUGUGUAUAAAUUAUUGAUCAUGUUGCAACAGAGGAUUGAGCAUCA,3.9
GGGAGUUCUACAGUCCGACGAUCAAAUUUAUUUCAUGCCAUGGACUCCAUAUCGGACGGAUACUUUGAUAGAAUAUGCUUCUUUGGAGGAUUUCCAAAAUAGCCGCCAAACGACAACAUAUAAACUUCCCAAUCGAGUGGAUGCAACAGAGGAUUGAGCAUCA,0.645
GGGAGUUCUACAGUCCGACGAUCGCCUACAAUAAUGAAAACUUACAGGAAUUUUUUUAUUUUUCAUUUCCCCUUAGGCAUACUUAGUCUUUUCCCCCAGGCAGAUGAUUCUGAGUGUGCGAGUGUGUGCACAUGUUACAGACACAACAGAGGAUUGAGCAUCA,0.666
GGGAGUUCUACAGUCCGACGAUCGUCAUCUGAUUGGAUGAAGACUGUCCCGAGUUAUAACCAAACAAACAGCUCCAUGGACUUCAGAAACUAUAUGAUGAGAGAUGAGAAUCUGGAACCACUGCCCAAAAACUGGGAGAUGGCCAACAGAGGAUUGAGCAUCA,0.33
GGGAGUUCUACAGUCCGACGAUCUCCUCAACUUGUUCUAGCUUGUGAUCCCUCAAAGUUGGGUCAUAUGUUAGUGCUAGAUACUAGAAAUUUUCACUUUUCCACUGAUCAGAGAGACAGACAUUAAAAACAAAAAUAGAAGAACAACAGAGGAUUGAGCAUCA,3.02
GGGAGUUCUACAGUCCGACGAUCGUGAUGUCCUUACUGUCCCCAGCCAGGGCCGGGGACCGGUGUUUCACUGAGGACCUGCAUUAGAAACAUUUUUUAAAUUGUUGUACAGGAAGAGAUGUGUCUAAAACAGCAUCUUAAAGCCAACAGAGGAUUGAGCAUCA,1.01
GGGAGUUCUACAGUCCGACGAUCGUACCACCUGUGCAGAUUUCCCAACACUGAAUGCAAAGUAGCAAUUUUCAUAGCCACAGUAAGGUAGCUUUAGGGCACUGUUGCCAUGGUUUUAUUCAUGUGCAAGUUUUGAAUAUGUAUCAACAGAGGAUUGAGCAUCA,1.19
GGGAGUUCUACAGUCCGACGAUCAUAUUCACUCAAUUGAAAUUAUUUAGAUAAGAGAAAUUAUUGUUUAUGUUUUCUUUCAAGGAGUUUAUCCUAUUUUUAUCCAUUUGCAAAUGCCGGUUUUGCGUGGUUUCUUAUCAUAUCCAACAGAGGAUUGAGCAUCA,0.759
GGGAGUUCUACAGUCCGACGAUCAAGAAAUGCUGGCUGCAAACCCUCAGGAUCGUCCAGAUGCUUUUGAACUAGAACUCAGAUUAGUACAAAUUGCGUUUAAAGAUAGCAGCUGGGAAACGUGACGCAUAUUGUUUGCAAAUACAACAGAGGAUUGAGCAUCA,0.773
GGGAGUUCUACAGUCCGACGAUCUUGAUGAUUUUCAAUCUCUUUUCCCUUACCCUGAUUUUAAAAGCCUUUUUUUUUUUUUAGGCAUAUAUAGUAAUAUUAGCAGAAAGAUUUAAUUUGGGCAACUUUGAUUCUUAAAAGAGACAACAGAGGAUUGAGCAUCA,0.291
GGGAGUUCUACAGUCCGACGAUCAGCAACUCAGGGGUUCAGGACUGGUUAUACCAACAUGCCAAGUAGAUUUGGAACCAGUAAUAACAGAAUUGGACAACCAAGACCAUGAUGUACAGUAACUUGAUUUUUAUGAAGCAUAUUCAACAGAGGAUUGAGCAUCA,0.381

# Block 4
# Target: Sal-like protein 4, full length isoform A (SALL4, Homo sapiens, UniProt Q9UJQ4, residues 1-1053)
# Chain of UniProt Q9UJQ4 (whole entry, looked up): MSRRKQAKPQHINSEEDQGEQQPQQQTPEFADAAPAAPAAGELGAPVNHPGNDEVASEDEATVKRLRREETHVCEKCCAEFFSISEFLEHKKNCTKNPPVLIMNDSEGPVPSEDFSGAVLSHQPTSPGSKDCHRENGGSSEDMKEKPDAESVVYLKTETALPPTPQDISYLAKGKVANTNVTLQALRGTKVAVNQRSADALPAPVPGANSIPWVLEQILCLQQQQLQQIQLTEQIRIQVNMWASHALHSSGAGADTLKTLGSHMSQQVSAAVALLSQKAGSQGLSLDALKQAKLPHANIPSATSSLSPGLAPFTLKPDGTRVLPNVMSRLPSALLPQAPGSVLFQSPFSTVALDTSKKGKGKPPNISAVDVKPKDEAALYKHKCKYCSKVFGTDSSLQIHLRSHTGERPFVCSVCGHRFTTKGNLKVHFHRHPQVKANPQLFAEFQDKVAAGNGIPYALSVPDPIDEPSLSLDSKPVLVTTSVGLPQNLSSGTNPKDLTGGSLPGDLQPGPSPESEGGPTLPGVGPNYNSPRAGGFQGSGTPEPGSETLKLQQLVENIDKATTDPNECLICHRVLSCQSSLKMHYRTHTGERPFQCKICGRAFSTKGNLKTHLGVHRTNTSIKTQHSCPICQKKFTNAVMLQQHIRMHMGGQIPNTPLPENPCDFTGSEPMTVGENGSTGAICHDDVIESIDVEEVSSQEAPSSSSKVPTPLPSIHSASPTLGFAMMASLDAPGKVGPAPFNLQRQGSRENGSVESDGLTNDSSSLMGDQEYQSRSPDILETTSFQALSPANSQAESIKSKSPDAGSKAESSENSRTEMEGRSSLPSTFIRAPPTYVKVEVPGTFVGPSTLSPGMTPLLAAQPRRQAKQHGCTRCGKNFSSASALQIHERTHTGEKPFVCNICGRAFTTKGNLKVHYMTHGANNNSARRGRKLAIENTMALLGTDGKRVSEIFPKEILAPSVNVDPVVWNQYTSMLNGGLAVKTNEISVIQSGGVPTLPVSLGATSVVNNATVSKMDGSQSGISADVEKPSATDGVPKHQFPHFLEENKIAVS
# Method: universal PBM
# Molecule type: double-stranded DNA, one strand shown
# Sample: in vitro
# Tested at: 600 nM
# Notes: 8-mer, flanks averaged, mean of replicates
# Reading: higher = stronger binding
Sequence,E-score
AGTAAAGC,0.205
AATGAGCT,0.1
CCTTGAAA,0.0511
GATCTGTA,0.0512
ACTATAGC,0.0208
CTTGAAAC,0.0301
CCACATAC,0.121
CAATTGCA,0.156
CATCTACG,0.104
AACTAGAG,0.0364
ATGCAGGC,-0.14
GTGTGCAA,-0.11
GGTCAACC,-0.193
ACCTAGAA,0.133
AAGCGTCG,-0.164
AAAACCAC,0.104
ACGCAGAA,0.013
CTGCACGC,-0.271
AATCTAAA,0.243
CTCTCTTA,0.0988
GCGATTCC,-0.175
ACAGACGG,-0.134
CTGTAGCA,0.0521
AGTACACG,-0.136
AATCTCTA,0.181

# For quick reference, copied from above (block 4):
Sequence,E-score
CATCTACG,0.104
AACTAGAG,0.0364
ATGCAGGC,-0.14
GTGTGCAA,-0.11
GGTCAACC,-0.193
ACCTAGAA,0.133
AAGCGTCG,-0.164
